Assay results from different studies.
Parts stem from different laboratories: compare values within a part only. Positions count from the first letter of the parent shown.
UniProt Q13873, sequence (whole entry, looked up): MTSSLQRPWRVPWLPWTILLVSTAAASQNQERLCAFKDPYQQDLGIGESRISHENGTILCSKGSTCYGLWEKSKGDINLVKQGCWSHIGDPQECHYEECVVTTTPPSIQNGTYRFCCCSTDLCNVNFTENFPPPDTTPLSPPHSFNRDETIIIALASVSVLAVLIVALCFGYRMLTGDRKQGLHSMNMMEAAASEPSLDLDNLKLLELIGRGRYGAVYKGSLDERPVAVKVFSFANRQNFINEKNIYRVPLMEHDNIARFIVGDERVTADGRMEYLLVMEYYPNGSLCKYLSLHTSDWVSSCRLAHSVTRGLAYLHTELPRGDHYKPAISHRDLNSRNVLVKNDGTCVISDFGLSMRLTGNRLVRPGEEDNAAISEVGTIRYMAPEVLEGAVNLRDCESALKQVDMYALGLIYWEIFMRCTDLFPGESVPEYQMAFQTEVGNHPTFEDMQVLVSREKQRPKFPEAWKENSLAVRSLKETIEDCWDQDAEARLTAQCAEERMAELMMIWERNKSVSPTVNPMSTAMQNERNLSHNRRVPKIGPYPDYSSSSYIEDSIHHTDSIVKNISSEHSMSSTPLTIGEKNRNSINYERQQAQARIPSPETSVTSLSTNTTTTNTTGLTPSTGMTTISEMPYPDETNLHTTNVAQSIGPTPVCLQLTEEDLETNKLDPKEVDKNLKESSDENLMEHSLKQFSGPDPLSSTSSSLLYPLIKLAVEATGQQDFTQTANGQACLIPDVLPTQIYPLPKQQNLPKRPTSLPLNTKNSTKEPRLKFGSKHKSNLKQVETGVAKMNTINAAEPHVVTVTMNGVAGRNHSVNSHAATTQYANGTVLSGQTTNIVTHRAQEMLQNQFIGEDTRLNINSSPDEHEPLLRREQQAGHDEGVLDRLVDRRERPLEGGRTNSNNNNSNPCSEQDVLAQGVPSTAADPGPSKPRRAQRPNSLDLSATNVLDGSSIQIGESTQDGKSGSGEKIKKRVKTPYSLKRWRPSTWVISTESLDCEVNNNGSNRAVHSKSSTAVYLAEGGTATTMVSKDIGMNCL
UniProt Q2M2I8, sequence (whole entry, looked up): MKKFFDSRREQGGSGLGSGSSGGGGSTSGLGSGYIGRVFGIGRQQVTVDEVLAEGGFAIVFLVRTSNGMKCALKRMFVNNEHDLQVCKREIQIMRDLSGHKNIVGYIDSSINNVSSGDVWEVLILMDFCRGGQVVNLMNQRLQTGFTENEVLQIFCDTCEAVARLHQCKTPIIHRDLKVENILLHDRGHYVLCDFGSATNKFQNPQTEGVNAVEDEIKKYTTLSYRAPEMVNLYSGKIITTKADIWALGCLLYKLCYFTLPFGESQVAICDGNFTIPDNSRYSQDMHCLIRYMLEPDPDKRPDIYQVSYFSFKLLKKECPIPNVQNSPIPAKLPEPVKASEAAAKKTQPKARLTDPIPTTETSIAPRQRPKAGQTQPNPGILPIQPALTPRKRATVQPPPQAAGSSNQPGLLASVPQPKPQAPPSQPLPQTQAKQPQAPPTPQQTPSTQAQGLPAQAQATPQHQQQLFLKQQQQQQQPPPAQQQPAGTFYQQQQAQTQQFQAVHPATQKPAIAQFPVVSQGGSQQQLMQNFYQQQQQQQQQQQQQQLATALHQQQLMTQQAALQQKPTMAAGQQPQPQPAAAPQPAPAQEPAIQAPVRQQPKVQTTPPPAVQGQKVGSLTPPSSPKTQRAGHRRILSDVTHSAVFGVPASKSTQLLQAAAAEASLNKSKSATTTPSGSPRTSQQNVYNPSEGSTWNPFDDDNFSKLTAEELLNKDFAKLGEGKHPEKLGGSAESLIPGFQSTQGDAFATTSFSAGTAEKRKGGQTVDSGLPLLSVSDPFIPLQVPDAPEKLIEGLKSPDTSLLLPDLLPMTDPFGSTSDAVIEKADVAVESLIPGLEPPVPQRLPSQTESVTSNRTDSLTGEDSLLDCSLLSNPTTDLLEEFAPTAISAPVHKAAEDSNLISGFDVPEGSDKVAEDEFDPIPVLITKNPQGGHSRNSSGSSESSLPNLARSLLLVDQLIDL

Study 1 — Variant: P146K; method: DHFR PCA, deep sequencing; medium: yeast; relative to: wild-type fitted maximum; direction: higher = stronger binding; measurement: relative binding score
Target: ABI1, truncated, D143A, DHFR fusion (Arabidopsis thaliana)
Setting: methotrexate growth selection, single substitutions
Parent: PYL1, truncated, DHFR fusion (Arabidopsis thaliana); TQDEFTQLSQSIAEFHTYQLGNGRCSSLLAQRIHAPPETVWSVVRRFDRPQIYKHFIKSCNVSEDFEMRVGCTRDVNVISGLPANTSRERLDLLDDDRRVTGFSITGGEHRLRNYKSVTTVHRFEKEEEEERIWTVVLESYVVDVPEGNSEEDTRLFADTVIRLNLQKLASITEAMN
setting = added: (+)-ABA 2500 µM; result = 45.2%
setting = added: (+)-ABA 1.4 µM; result = -3.26%
setting = added: (+)-ABA 4.8 µM; result = -9.13%
setting = added: (+)-ABA 0.39 µM; result = -15.8%
setting = added: (+)-ABA 0.11 µM; result = -0.928%
setting = added: (+)-ABA 200 µM; result = -0.377%

Study 2 — tested at: 1 µM; measurement: remaining binding
Compound: Cc1nc(Cc2cccc(C(F)(F)F)c2)sc1-c1ccc(C(N)=O)nc1
target = Bone morphogenetic protein receptor type-2 (BMPR2, Homo sapiens, UniProt Q13873); test = cell-free assay, competition with immobilised ligand; result = 100%
target = Epidermal growth factor receptor (EGFR, Homo sapiens, UniProt P00533, L858R); test = cell-free assay, competition with immobilised ligand; result = 100%
target = AP2-associated protein kinase 1 (AAK1, Homo sapiens, UniProt Q2M2I8); test = binding; result = 96%

Other studies, line by line
Substance = MPHOSPH10 (Homo sapiens, UniProt O00566); target or system = NOP14 (Homo sapiens, UniProt P78316); test = cross-linking MS; system = cell fractions; setting = added: DMTMM; measurement = cross-linked residues; result = E419 to K26
Substance = CCC[C@@H]1NC(=O)CSC[C@@H](C(=O)OCC)N(C)C(=O)[C@H](CC(C)C)NC(=O)[C@@H](C)N(C)C(=O)[C@@H](CC(C)C)NC(=O)[C@H](C)N(C)C(=O)[C@H]2CCCN2C(=O)[C@@H](CC(C)C)NC(=O)CN(CCC)C1=O; system = hydrocarbon/water; measurement = logD; result = 1.12
Substance = FAM98A (Homo sapiens, UniProt Q8NCA5); target or system = RTCB (Homo sapiens, UniProt Q9Y3I0); test = cross-linking MS; system = cell fractions; setting = added: DSSO; measurement = cross-linked residues; result = K277 to K245
Substance = ARID2 (Homo sapiens, UniProt Q68CP9); target or system = SMARCD2 (Homo sapiens, UniProt Q92925); test = cross-linking MS; system = cell fractions; setting = added: DSSO; measurement = cross-linked residues; result = K275 to K480
Substance = GOLGB1 (Homo sapiens, UniProt Q14789); target or system = BEND3 (Homo sapiens, UniProt Q5T5X7); test = cross-linking MS; system = cell fractions; setting = added: DSSO; measurement = cross-linked residues; result = K3002 to S556

A few entries again (other studies, line by line):
Substance = MPHOSPH10 (Homo sapiens, UniProt O00566); target or system = NOP14 (Homo sapiens, UniProt P78316); test = cross-linking MS; system = cell fractions; setting = added: DMTMM; measurement = cross-linked residues; result = E419 to K26
Substance = GOLGB1 (Homo sapiens, UniProt Q14789); target or system = BEND3 (Homo sapiens, UniProt Q5T5X7); test = cross-linking MS; system = cell fractions; setting = added: DSSO; measurement = cross-linked residues; result = K3002 to S556
